{"data": "Published values collected from several papers", "note": "Numbered parts are unrelated; each lists some results of a single study. “And” joins repeats or separate records; there may be more than shown.", "sequence of UniProt P42336 (whole entry, unmodified, looked up)": "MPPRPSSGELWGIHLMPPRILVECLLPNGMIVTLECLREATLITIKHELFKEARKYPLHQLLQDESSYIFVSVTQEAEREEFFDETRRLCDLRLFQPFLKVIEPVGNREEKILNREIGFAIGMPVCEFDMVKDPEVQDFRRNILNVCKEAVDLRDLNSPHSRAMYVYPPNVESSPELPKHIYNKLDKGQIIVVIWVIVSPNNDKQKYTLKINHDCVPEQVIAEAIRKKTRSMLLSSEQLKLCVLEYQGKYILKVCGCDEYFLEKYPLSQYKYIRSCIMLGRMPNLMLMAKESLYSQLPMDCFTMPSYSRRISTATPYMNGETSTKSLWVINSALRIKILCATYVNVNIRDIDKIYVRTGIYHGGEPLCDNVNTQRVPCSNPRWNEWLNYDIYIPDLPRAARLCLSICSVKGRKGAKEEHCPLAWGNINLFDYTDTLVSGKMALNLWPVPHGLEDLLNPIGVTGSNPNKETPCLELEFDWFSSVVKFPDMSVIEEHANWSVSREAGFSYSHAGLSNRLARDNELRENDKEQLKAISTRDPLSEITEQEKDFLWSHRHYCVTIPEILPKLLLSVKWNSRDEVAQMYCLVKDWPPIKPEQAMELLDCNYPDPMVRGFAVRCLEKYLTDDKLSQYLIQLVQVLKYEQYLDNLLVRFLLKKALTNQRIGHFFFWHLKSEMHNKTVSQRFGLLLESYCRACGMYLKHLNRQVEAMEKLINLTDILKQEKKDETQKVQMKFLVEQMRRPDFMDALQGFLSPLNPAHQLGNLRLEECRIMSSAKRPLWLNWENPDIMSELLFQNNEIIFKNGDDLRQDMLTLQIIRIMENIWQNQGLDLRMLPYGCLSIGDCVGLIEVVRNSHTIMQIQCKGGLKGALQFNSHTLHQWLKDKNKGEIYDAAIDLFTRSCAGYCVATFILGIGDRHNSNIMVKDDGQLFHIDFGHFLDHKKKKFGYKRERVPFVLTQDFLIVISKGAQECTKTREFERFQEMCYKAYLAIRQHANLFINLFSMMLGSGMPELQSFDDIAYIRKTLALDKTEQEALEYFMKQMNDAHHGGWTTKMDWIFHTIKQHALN", "sequence of UniProt P08069 (whole entry, looked up)": "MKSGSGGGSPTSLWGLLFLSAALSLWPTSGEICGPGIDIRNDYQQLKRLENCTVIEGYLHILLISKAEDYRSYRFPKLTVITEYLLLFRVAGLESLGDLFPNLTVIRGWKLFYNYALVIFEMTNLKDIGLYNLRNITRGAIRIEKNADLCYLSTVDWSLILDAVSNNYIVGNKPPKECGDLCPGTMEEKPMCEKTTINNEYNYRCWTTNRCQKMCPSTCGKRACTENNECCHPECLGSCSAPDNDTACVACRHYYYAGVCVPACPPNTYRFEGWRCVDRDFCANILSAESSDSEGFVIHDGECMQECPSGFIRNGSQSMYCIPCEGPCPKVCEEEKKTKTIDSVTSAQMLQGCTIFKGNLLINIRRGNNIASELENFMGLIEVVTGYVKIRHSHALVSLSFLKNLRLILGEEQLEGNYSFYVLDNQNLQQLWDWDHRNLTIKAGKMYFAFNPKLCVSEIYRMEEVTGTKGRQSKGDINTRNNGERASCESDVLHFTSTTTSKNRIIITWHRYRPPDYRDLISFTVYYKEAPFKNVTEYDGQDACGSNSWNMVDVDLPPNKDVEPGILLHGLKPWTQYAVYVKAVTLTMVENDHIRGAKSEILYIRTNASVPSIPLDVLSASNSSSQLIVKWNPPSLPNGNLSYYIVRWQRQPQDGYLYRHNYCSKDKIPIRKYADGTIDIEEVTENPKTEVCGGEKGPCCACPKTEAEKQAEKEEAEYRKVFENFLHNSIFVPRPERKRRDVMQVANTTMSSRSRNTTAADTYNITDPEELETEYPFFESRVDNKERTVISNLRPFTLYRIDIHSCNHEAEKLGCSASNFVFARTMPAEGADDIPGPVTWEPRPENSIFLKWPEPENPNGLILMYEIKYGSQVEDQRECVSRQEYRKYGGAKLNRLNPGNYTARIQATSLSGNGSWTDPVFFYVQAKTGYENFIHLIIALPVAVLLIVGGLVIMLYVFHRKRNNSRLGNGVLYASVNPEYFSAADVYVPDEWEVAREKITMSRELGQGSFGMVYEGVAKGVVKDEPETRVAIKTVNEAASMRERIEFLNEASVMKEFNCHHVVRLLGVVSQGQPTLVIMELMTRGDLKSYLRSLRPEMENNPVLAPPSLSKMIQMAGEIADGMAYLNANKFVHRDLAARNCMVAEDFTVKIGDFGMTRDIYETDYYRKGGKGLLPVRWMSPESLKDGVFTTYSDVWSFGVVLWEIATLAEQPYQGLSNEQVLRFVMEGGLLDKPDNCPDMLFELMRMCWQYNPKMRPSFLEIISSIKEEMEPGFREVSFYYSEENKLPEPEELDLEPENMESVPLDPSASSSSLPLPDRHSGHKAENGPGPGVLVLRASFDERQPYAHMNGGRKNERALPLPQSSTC", "sequence of UniProt P29317 (whole entry, looked up)": "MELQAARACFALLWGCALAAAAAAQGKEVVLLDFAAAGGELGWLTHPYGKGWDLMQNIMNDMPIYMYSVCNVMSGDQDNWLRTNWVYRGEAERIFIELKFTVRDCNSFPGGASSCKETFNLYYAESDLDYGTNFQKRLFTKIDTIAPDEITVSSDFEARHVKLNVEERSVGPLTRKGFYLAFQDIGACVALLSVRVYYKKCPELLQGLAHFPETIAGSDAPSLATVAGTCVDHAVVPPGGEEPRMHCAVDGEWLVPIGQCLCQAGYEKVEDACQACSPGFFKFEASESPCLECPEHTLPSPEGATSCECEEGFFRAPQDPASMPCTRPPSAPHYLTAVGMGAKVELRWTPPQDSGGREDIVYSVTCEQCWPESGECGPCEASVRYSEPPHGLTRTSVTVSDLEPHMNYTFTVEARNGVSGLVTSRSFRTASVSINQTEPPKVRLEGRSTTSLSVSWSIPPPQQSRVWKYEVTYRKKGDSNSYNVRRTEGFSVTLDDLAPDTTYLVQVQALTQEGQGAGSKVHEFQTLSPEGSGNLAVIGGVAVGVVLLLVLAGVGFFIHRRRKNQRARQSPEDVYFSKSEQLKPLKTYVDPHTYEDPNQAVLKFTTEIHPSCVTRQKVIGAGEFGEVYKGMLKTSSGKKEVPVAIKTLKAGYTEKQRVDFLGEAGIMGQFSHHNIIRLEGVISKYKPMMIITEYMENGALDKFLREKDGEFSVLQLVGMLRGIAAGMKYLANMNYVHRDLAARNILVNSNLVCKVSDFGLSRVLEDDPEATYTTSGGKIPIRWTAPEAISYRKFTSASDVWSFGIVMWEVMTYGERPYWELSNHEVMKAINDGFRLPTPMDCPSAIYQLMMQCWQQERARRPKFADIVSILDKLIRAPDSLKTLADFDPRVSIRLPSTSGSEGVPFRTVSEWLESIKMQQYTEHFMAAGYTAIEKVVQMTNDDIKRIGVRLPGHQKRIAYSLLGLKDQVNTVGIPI", "sequence of UniProt Q06418 (whole entry, looked up)": "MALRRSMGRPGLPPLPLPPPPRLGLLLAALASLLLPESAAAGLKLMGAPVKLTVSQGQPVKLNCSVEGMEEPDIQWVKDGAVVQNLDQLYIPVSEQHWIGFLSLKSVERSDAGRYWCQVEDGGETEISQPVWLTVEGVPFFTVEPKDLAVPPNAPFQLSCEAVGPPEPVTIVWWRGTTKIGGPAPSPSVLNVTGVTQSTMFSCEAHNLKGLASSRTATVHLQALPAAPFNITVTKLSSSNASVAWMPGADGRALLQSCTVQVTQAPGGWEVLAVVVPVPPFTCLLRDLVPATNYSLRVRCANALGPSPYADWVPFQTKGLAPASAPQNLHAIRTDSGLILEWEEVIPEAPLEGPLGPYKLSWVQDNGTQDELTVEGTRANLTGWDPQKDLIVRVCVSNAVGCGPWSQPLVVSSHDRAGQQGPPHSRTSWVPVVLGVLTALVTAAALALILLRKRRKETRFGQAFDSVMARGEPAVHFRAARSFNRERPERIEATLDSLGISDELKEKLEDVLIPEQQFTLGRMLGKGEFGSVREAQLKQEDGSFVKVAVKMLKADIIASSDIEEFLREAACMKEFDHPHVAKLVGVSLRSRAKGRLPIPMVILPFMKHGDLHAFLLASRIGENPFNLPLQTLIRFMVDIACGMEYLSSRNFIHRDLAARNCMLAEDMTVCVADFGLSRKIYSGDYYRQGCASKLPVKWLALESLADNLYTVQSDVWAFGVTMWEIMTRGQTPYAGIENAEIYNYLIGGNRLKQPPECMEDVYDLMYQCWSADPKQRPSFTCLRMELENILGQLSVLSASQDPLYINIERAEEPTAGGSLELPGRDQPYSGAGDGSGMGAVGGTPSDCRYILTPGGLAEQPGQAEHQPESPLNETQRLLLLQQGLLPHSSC", "sequence of UniProt P49674 (whole entry, looked up)": "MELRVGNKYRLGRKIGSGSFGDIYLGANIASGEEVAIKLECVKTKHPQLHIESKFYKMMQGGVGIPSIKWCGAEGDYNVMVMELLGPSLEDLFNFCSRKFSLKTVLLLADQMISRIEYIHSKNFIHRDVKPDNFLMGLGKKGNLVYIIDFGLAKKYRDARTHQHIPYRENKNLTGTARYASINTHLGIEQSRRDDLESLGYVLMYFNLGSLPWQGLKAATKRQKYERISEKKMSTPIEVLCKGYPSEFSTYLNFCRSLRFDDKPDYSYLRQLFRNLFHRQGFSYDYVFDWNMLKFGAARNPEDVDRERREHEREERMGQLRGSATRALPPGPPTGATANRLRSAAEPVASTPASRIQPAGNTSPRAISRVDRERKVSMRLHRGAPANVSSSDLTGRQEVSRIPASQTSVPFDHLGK", "sequence of UniProt Q9HBY8 (whole entry, looked up)": "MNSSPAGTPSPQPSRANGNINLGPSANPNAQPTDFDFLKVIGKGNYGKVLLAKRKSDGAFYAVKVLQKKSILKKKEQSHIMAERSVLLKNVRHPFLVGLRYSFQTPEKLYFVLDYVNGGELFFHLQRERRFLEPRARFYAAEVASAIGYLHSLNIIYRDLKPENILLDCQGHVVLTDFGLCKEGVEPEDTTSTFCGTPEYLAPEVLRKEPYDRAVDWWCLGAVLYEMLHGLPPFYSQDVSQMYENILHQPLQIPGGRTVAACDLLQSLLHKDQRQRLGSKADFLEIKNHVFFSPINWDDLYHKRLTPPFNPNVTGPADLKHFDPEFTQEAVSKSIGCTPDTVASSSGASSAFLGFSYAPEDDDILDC"}
{"data": "Series 1", "SMILES": "CN(C)c1ncnc(-c2ccc3nc(Nc4cc(CN5CCN(C(=O)CC(F)(F)F)CC5)ccn4)[nH]c3c2)c1Cl", "concentration": "1 µM"}
{"target": "MAP4K1 (Homo sapiens, UniProt Q92918)", "assay": "cell-free assay, competition with immobilised ligand", "remaining binding": "91%"}
{"target": "PIP5K1A (Homo sapiens, UniProt Q99755)", "assay": "cell-free assay, competition with immobilised ligand", "remaining binding": "96%"}
{"target": "MATK (Homo sapiens, UniProt P42679)", "assay": "cell-free assay, competition with immobilised ligand", "remaining binding": "69%"}
{"target": "EGFR (Homo sapiens, UniProt P00533, G719C)", "assay": "cell-free assay, competition with immobilised ligand", "remaining binding": "88%"}
{"target": "PRPF4B (Homo sapiens, UniProt Q13523)", "assay": "cell-free assay, competition with immobilised ligand", "remaining binding": "100%"}
{"target": "PTK2 (Homo sapiens, UniProt Q05397)", "assay": "cell-free assay, competition with immobilised ligand", "remaining binding": "100%"}
{"target": "TYRO3 (Homo sapiens, UniProt Q06418)", "assay": "cell-free assay, competition with immobilised ligand", "remaining binding": "100%"}
{"target": "PKMYT1 (Homo sapiens, UniProt Q99640)", "assay": "cell-free assay, competition with immobilised ligand", "remaining binding": "75%"}
{"target": "ANKK1 (Homo sapiens, UniProt Q8NFD2)", "assay": "cell-free assay, competition with immobilised ligand", "remaining binding": "57%"}
{"target": "EPHB3 (Homo sapiens, UniProt P54753)", "assay": "cell-free assay, competition with immobilised ligand", "remaining binding": "100%"}
{"target": "PTK2B (Homo sapiens, UniProt Q14289)", "assay": "cell-free assay, competition with immobilised ligand", "remaining binding": "85%"}
{"target": "STK17B (Homo sapiens, UniProt O94768)", "assay": "cell-free assay, competition with immobilised ligand", "remaining binding": "52%"}
{"target": "EPHA2 (Homo sapiens, UniProt P29317)", "assay": "cell-free assay, competition with immobilised ligand", "remaining binding": "100%"}
{"target": "IGF1R (Homo sapiens, UniProt P08069)", "assay": "cell-free assay, competition with immobilised ligand", "remaining binding": "100%"}
{"target": "PIK3CA (Homo sapiens, UniProt P42336, H1047L)", "assay": "cell-free assay, competition with immobilised ligand", "remaining binding": "61%"}
{"target": "RET (Homo sapiens, UniProt P07949, V804M)", "assay": "cell-free assay, competition with immobilised ligand", "remaining binding": "93%"}
{"target": "DAPK2 (Homo sapiens, UniProt Q9UIK4)", "assay": "cell-free assay, competition with immobilised ligand", "remaining binding": "100%"}
{"target": "CHEK1 (Homo sapiens, UniProt O14757)", "assay": "cell-free assay, competition with immobilised ligand", "remaining binding": "97%"}
{"target": "PRKACB (Homo sapiens, UniProt P22694)", "assay": "cell-free assay, competition with immobilised ligand", "remaining binding": "76%"}
{"target": "PIK3CA (Homo sapiens, UniProt P42336, E545A)", "assay": "cell-free assay, competition with immobilised ligand", "remaining binding": "100%"}
{"target": "BUB1 (Homo sapiens, UniProt O43683)", "assay": "cell-free assay, competition with immobilised ligand", "remaining binding": "94%"}
{"target": "Tyrosine-protein kinase ABL1, phosphorylated (ABL1, Homo sapiens, UniProt P00519, F317I)", "assay": "binding", "remaining binding": "71%"}
{"target": "CDK9 (Homo sapiens, UniProt P50750)", "assay": "cell-free assay, competition with immobilised ligand", "remaining binding": "100%"}
{"target": "CDK5 (Homo sapiens, UniProt Q00535)", "assay": "cell-free assay, competition with immobilised ligand", "remaining binding": "100%"}
{"data": "Series 2", "SMILES": "C[C@@H]1CN(c2ccc(-c3cc(C(=O)NCCOCCOCCOCCOCCNC(=O)Cn4cc(-c5[nH]cc(C(=O)N[C@@H](CC(N)=O)c6ccc(F)c(Cl)c6)c5-c5ccc(Cl)cc5F)cn4)ccc3F)cc2NC(=O)c2c[nH]c(=O)cc2C(F)(F)F)C[C@H](C)N1C", "technique": "ATPlite"}
{"cell line": "MV4-11 expressing HiBiT-WDR5", "system": "RPMI with 10% FBS", "setting": "13.3 nM, 24 h", "viability": "96.3% and 84.4% and 95%"}
{"cell line": "MV4-11", "setting": "0.0215 µM, 5 days", "how to read": "baseline: DMSO", "viability": "108% and 102% and 74.3% and 77.4%"}
{"cell line": "MV4-11 expressing HiBiT-WDR5", "system": "RPMI with 10% FBS", "setting": "5.15 nM, 24 h", "viability": "80.7% and 134% and 104%"}
{"cell line": "MV4-11", "setting": "0.464 µM, 5 days", "how to read": "baseline: DMSO", "viability": "77.2% and 97.9%"}
{"cell line": "MV4-11 expressing HiBiT-WDR5", "system": "RPMI with 10% FBS", "setting": "34.2 nM, 24 h", "viability": "100% and 94.2% and 76.2%"}
{"data": "Series 3", "technique": "logD(dd/w) and ALogP", "setting": "JT method"}
{"Structure (SMILES)": "CC(C)C[C@@H]1NC(=O)[C@H](CC(C)C)NC(=O)[C@@H](CC(C)C)NC(=O)[C@@H](CC(C)C)NC(=O)[C@@H](Cc2cscn2)NC(=O)[C@H](CC(C)C)NC(=O)[C@@H](CC(C)C)NC1=O", "lipophilic permeability efficiency": 2.13}
{"Structure (SMILES)": "CC(C)C[C@@H]1NC(=O)[C@H](CC(C)C)NC(=O)[C@@H](CC(C)C)NC(=O)[C@@H](CC(C)C)NC(=O)[C@@H](CCC(=O)N2CCCC2)NC(=O)[C@H](CC(C)C)NC(=O)[C@@H](CC(C)C)NC1=O", "lipophilic permeability efficiency": 2.24}
{"Structure (SMILES)": "CC(C)C[C@@H]1NC(=O)[C@@H](C)NC(=O)[C@@H](CC(C)C)NC(=O)[C@@H](CC(C)C)NC(=O)[C@H](C(C)C)NC(=O)[C@H](CC(C)C)NC(=O)[C@@H](CC(C)C)NC1=O", "lipophilic permeability efficiency": 2.56}
{"Structure (SMILES)": "CC(C)C[C@@H]1NC(=O)[C@H](C)NC(=O)[C@H](CCC(=O)N2CCCC2)NC(=O)[C@@H](CCC(=O)N2CCCC2)NC(=O)[C@H](CC(C)C)NC(=O)[C@@H](CC(C)C)NC(=O)[C@H](CC(C)C)NC1=O", "lipophilic permeability efficiency": 1.41}
{"Structure (SMILES)": "CC(C)C[C@@H]1NC(=O)[C@H](CC(C)C)NC(=O)[C@@H](C(C)C)NC(=O)[C@H](CC(C)C)NC(=O)[C@H](C(C)C)NC(=O)[C@H](Cc2cscn2)NC(=O)[C@H](C)NC1=O", "lipophilic permeability efficiency": 2.43}
{"Structure (SMILES)": "CC(C)C[C@@H]1NC(=O)[C@H](C)NC(=O)[C@H](C)NC(=O)[C@@H](CC(C)C)NC(=O)[C@H](C)NC(=O)[C@H](CC(C)C)NC(=O)[C@H](CC(C)C)NC1=O", "lipophilic permeability efficiency": 2.35}
{"Structure (SMILES)": "CC(C)C[C@@H]1NC(=O)[C@H](CC(C)C)NC(=O)[C@@H](CC(C)C)NC(=O)[C@H](CC(C)C)NC(=O)[C@@H](CCC(=O)N2CCCC2)NC(=O)[C@H](C)NC(=O)[C@H](C)NC1=O", "lipophilic permeability efficiency": 1.78}
{"data": "Series 4", "SMILES": "C[C@@H](N)[C@H]1CC[C@H](C(=O)Nc2ccncc2)CC1", "read-out": "enzyme activity", "mode": "inhibitor", "concentration": "0.5 µM", "baseline": "control"}
{"target": "PAK6 (Homo sapiens, UniProt Q9NQU5)", "remaining activity [%]": 92.9}
{"target": "IGF1R (Homo sapiens, UniProt P08069)", "remaining activity [%]": 75.5}
{"target": "CAMKK1 (Homo sapiens, UniProt Q8N5S9)", "remaining activity [%]": 85.3}
{"target": "SRPK1 (Homo sapiens, UniProt Q96SB4)", "remaining activity [%]": 99}
{"target": "CSNK1D (Homo sapiens, UniProt P48730)", "remaining activity [%]": 92.6}
{"target": "PRKCQ (Homo sapiens, UniProt Q04759)", "remaining activity [%]": 93.5}
{"target": "Cyclin-dependent kinase 2, with cyclin E (CDK2, Homo sapiens, UniProt P24941)", "remaining activity [%]": 95.2}
{"target": "TYRO3 (Homo sapiens, UniProt Q06418)", "remaining activity [%]": 97.9}
{"target": "PAK1 (Homo sapiens, UniProt Q13153)", "remaining activity [%]": 93.3}
{"target": "CAMK1 (Homo sapiens, UniProt Q14012)", "remaining activity [%]": 105}
{"target": "EPHA2 (Homo sapiens, UniProt P29317)", "remaining activity [%]": 104}
{"target": "FLT1 (Homo sapiens, UniProt P17948)", "remaining activity [%]": 90.1}
{"target": "EPHA6 (Homo sapiens, UniProt Q9UF33)", "remaining activity [%]": 90.5}
{"target": "CSNK1E (Homo sapiens, UniProt P49674)", "remaining activity [%]": 92}
{"target": "SIK2 (Homo sapiens, UniProt Q9H0K1)", "remaining activity [%]": 96.9}
{"target": "CLK1 (Homo sapiens, UniProt P49759)", "remaining activity [%]": 91.1}
{"target": "MUSK (Homo sapiens, UniProt O15146)", "remaining activity [%]": 86.8}
{"target": "TEC (Homo sapiens, UniProt P42680)", "remaining activity [%]": 98.7}
{"target": "SGK2 (Homo sapiens, UniProt Q9HBY8)", "remaining activity [%]": 103}
{"target": "JAK1 (Homo sapiens, UniProt P23458)", "remaining activity [%]": 108}
{"note": "A few entries again (series 1):"}
{"target": "ANKK1 (Homo sapiens, UniProt Q8NFD2)", "assay": "cell-free assay, competition with immobilised ligand", "remaining binding": "57%"}
{"target": "PTK2B (Homo sapiens, UniProt Q14289)", "assay": "cell-free assay, competition with immobilised ligand", "remaining binding": "85%"}
{"target": "PIK3CA (Homo sapiens, UniProt P42336, H1047L)", "assay": "cell-free assay, competition with immobilised ligand", "remaining binding": "61%"}
{"target": "PKMYT1 (Homo sapiens, UniProt Q99640)", "assay": "cell-free assay, competition with immobilised ligand", "remaining binding": "75%"}
{"target": "CDK5 (Homo sapiens, UniProt Q00535)", "assay": "cell-free assay, competition with immobilised ligand", "remaining binding": "100%"}
